# Results from different studies.
# Compare with care: the assays were run in different laboratories. ± gives the spread as reported.
SMILES,assay,system,setting,how to read,endpoint,value
CC(C)[C@H](C(=O)O[C@H](C#N)c1cccc(Oc2ccccc2)c1)c1ccc(Cl)cc1,,pooled human liver cytosol,,,CLint,35 µL/min/mg
CC(C)C[C@@H]1NC(=O)CNC(=O)[C@H](CC(N)=O)NC(=O)[C@H](CCCNC(=N)N)NC(=O)[C@H]([C@@H](C)O)NC(=O)[C@@H]2CSSC[C@@H]3NC(=O)[C@H]([C@@H](C)O)NC(=O)CNC(=O)CNC(=O)[C@H](C(C)C)NC(=O)[C@@H]4CSSC[C@H](NC(=O)[C@H]([C@@H](C)O)NC(=O)[C@H](CSSC[C@H](NC(=O)[C@H](C(C)C)NC(=O)[C@@H]5CCCN5C1=O)C(=O)NCC(=O)N[C@@H](CCC(=O)O)C(=O)N[C@@H]([C@@H](C)O)C(=O)N4)NC(=O)CNC(=O)[C@@H]1CCCN1C(=O)[C@H](CCCCN)NC(=O)[C@H](CC(N)=O)NC3=O)C(=O)N[C@@H](CO)C(=O)N[C@@H](Cc1c[nH]c3ccccc13)C(=O)N1CCC[C@H]1C(=O)N[C@@H](C(C)C)C(=O)N2,HPLC,ammonium bicarbonate 0.1 M,"180 µM, 14 days, pH 9.0, 37 °C, deamidation stability",,remaining peptide,57.9 ± 2%
O=C(Nc1ccccc1)C1CCN(C(=O)Oc2cccnc2)CC1,item: dry mouth,healthy female humans,"concentration not given, safety set, all doses pooled",,TEAE incidence,21%
CCN1CCN(Cc2ccc(Nc3ncc(F)c(-c4cc(F)c5nc6n(c5c4)[C@H](C)CCC6)n3)nc2)CC1,,advanced solid tumour patients,"dose not given, Phase Ia monotherapy",,"Diarrhea incidence, grade ≥3",16.7%
Cc1ccc2c(c1)C(=O)C1(O)CCN(c3ccccc3)C1=N2 (stereo not drawn),echocardiography,rat,"intravenous infusion, 0.5 mg/kg, 10 min",,cardiac output reduction,25 to 50%
Clc1cccc(-c2ccc(Cl)c(Cl)c2)c1,,PDMS-water partitioning,PCB compilation,baseline: maximum over minimum K,literature range factor,1.2
CN[C@H](CC(C)C)C(=O)N[C@H]1C(=O)N[C@@H](CC(N)=O)C(=O)N[C@H]2C(=O)N[C@H]3C(=O)N[C@H](C(=O)N[C@H](C(=O)O)c4cc(O)cc(O)c4-c4cc3ccc4O)[C@H](O)c3ccc(c(Cl)c3)Oc3cc2cc(c3O[C@@H]2O[C@H](CO)[C@@H](O)[C@H](O)[C@H]2O[C@H]2C[C@](C)(N)[C@H](O)[C@H](C)O2)Oc2ccc(cc2Cl)[C@H]1O,population PK model,human neonates,dose not given,,"volume of distribution, bootstrap median",0.904 L
COc1ccc2nc3cc(Cl)ccc3c(Nc3cc(CN4CCCC4)c(O)c(CN4CCCC4)c3)c2n1,,"mouse, blood","intraperitoneal, 28 mg/kg",,monocytes,2.7%
Cc1nc2c(=O)n(C)c(=O)nc-2n(C)n1,,mouse liver microsomes,,,hepatic clearance,< 22.1 mL/min/kg
CCN1[C@@H](C(=O)NC23CCC(C(=O)O)(CC2)CC3)[C@H](c2cccc(Cl)c2F)[C@]2(C(=O)Nc3cc(Cl)ccc32)C12CCCCC2,,patients with advanced solid tumours,"oral, dose not given, all doses",,grade 3/4 lymphocytopenia incidence,33.3%
CO[C@H]1C[C@@H]2CC[C@@H](C)[C@@](O)(O2)C(=O)C(=O)N2CCCC[C@H]2C(=O)O[C@H]([C@H](C)C[C@@H]2CC[C@@H](OC(=O)NCCOCCOCCOCCOCCOCCOCCOCCOCCC(=O)N3CCc4cc(Cn5nc(-c6ccc7oc(N)nc7c6)c6c(N)ncnc65)ccc4C3)[C@H](OC)C2)C[C@@H](O)[C@H](C)/C=C(\C)[C@@H](O)[C@@H](OC)C(=O)[C@H](C)C[C@H](C)/C=C/C=C/C=C/1C,"phase 1 dose escalation, item: nausea",advanced solid tumour patients,"intravenous, 8 mg weekly, grade ≥3",,TRAE incidence,6.3%
Clc1ccc(-c2cc(Cl)c(Cl)c(Cl)c2)cc1Cl,,fresh water,"20 °C, S100 sampler, 100 µm",,log K(PDMS-water),5.97 ± 0.04
O=S(=O)(Nc1ccccc1)c1ccc(NC(=S)Nc2ccccc2)cc1,item: BA%,"female mouse, blood","oral, 5 mg/kg daily, 14 days",,blood cell fraction,0.12%
C=C(C)[C@@H]1CCC(C)=C[C@H]1c1c(O)cc(CCCCC)cc1O,,human,"750 mg, trial 17074, added: rifampicin 600 mg",,subjects with Nausea,6%
CN1CC[C@@H](c2c(O)cc(O)c3c(=O)cc(-c4ccc(C(F)(F)F)cc4Cl)oc23)[C@@H]1CO,item: Dyspnea,relapsed or refractory haematological malignancies,"oral, dose not given, all arms",,patients with adverse event,15%
COc1cc2c(Oc3ccc4[nH]c(C)cc4c3F)ccnc2cc1OCC1(N)CC1,,paediatric recurrent refractory sarcoma,12 mg,,grade 1 or 2 AST elevation,54.5%
CCN(CCO)CCCC(C)Nc1ccnc2cc(Cl)ccc12 (stereo not drawn),,newly diagnosed glioblastoma patients,"oral, 400 mg/dose, grade 4, added: radiotherapy plus temozolomide",,neutrophil count decreased patients,33%
CCc1ccc(CC/C=C/c2ccc3c(c2)C(=O)CC3)cc1,,"Sprague-Dawley rat, male","oral, 120 mg/kg/day, 14 days",,CHCM,315 g/L
O=C1Nc2cc3[nH]nc(-c4ccncc4)c3cc2CN1Cc1ccccc1,CTCAE v4.03,advanced solid tumour patients,"intravenous, 6.4 mg/kg",,patients with macular oedema,11%
CC[C@H](C)[C@H](NC(=O)[C@H](Cc1ccc(O)cc1)NC(=O)[C@@H]1CCCN1C(=O)[C@H](CCCNC(=N)N)NC(=O)[C@@H](N)CCCNC(=N)NC(=O)NCCCCNC(=O)CCCCCN1\C(=C/C=C/C=C/C2=[N+](CCCCS(=O)(=O)[O-])c3ccccc3C2(C)C)C(C)(C)c2cc(S(=O)(=O)O)ccc21)C(=O)N[C@@H](CC(C)C)C(=O)O,,PBS,pH 7.4,baseline: cresyl violet perchlorate,fluorescence quantum yield,30%
COc1cc2c(cc1OC)CN(CCc1ccc(NC(=O)c3cccc4c(=O)c5cccc(OC)c5[nH]c34)cc1)CC2,,"CD-1 mouse, male, plasma","intraperitoneal, 1 mg/kg",,elimination rate constant,1.46e-05 s⁻¹
C[C@]1(CO)Cc2ncn(-c3ccc(C#N)c(Cl)c3)c2C(=O)O1,,"healthy Japanese adults, plasma",3 mg single dose,,AUC(0-inf),1.08 µM·h
COc1ncccc1-c1cnn2ccc(N3CCN(C(=O)OC(C)C)CC3)nc12,,"rat, CCI mechanical allodynia model, brain","oral, 30 mg/kg, 240 min",,drug concentration,7.6 µM
CC(C)C[C@@H]1NC(=O)CNC(=O)[C@H](CC(N)=O)NC(=O)[C@H](CCCNC(=N)N)NC(=O)[C@H]([C@@H](C)O)NC(=O)[C@@H]2CSSC[C@@H]3NC(=O)[C@H]([C@@H](C)O)NC(=O)CNC(=O)CNC(=O)[C@H](C(C)C)NC(=O)[C@@H]4CSSC[C@H](NC(=O)[C@H]([C@@H](C)O)NC(=O)[C@H](CSSC[C@H](NC(=O)[C@H](CCCCN)NC(=O)[C@@H]5CCCN5C1=O)C(=O)NCC(=O)N[C@@H](CCC(=O)O)C(=O)N[C@@H]([C@@H](C)O)C(=O)N4)NC(=O)CNC(=O)[C@@H]1CCCN1C(=O)[C@H]([C@@H](C)O)NC(=O)[C@H](CC(N)=O)NC3=O)C(=O)N[C@@H](CO)C(=O)N[C@@H](Cc1c[nH]c3ccccc13)C(=O)N1CCC[C@H]1C(=O)N[C@@H](C(C)C)C(=O)N2,HPLC,ammonium bicarbonate 0.1 M,"180 µM, 14 days, pH 9.0, 37 °C, deamidation stability",,remaining peptide,48.1 ± 13.6%
[O-][S+]1CCc2nc(N3CCC(c4ncc(Cl)cn4)CC3)nc(NC3(CO)CCC3)c21 (stereo not drawn),"phase I trial, item: oral hypoaesthesia",healthy male volunteers,"dose not given, single rising dose, all cohorts",,subjects with adverse events,0%
COc1ncnn2ccc(-c3cnc4nc(C)n(Cc5nnc([C@@H](C)F)o5)c4c3)c12,,human patients,"oral, dose not given",,incidence of any adverse events (all grades),100%
O=C(Nc1ccccc1)C1CCN(C(=O)Oc2cccnc2)CC1,adverse event reporting,healthy women,"oral, 20 mg, 7 days",,subjects with Tachycardia adverse event,7.1%

# Repeated from above:
SMILES,assay,system,setting,how to read,endpoint,value
COc1ccc2nc3cc(Cl)ccc3c(Nc3cc(CN4CCCC4)c(O)c(CN4CCCC4)c3)c2n1,,"mouse, blood","intraperitoneal, 28 mg/kg",,monocytes,2.7%
Cc1nc2c(=O)n(C)c(=O)nc-2n(C)n1,,mouse liver microsomes,,,hepatic clearance,< 22.1 mL/min/kg
